# Experimental data collected from several papers.
# Each line is one published result; not all experiments were run side by side. ± marks the error that the study gave.
Structure (SMILES),target or system,test,test system,setting,scale,quantity,value
CN(C(=O)[C@@H]1CSCC(=O)N[C@@H](Cc2ccccc2)C(=O)N[C@@H](CO)C(=O)N[C@@H](Cc2ccccc2)C(=O)N[C@@H](Cc2ccc(O)cc2)C(=O)N[C@@H](Cc2ccc(O)cc2)C(=O)N[C@@H](Cc2c[nH]cn2)C(=O)N[C@@H](Cc2c[nH]c3ccccc23)C(=O)N1)[C@@H](Cc1ccccc1)C(N)=O,"STING1 (Homo sapiens, UniProt Q86WV6, H232R)","thermal stability, DSF",,100 µM,,ΔTm,8.48 °C
CN(C)[C@H]1C[C@@]23CC[C@@]4(O2)C(=CC[C@]2(C)[C@@H](c5ccc6ccncc6c5)CC[C@H]24)C=C3[C@@H](O)[C@@H]1O,"CAMKK2 (Homo sapiens, UniProt Q96RR4)","ATP probe labelling, inhibitor, KiNativ profiling",,0.1 µM,,inhibition,-4.3%
CS(C)(=O)=Nc1ccc(-c2ccc(-c3nc4cc(O[C@@H]5CO[C@H]6[C@@H]5OC[C@H]6O)[nH]c4cc3F)cc2)cc1,"CAMK2B (Homo sapiens, UniProt Q13554)","enzyme activity, inhibitor",,10 µM,,inhibition,-5%
CCOC(=O)[C@@H]1Cc2c(cc([N+](=O)[O-])cc2[N+](=O)[O-])[C@H](O)[C@]12C(=O)Nc1ccc(Br)cc12,"STK11 (Homo sapiens, UniProt Q15831)","binding, competition with immobilised ligand",,0.1 µM,,remaining binding,54%
C[N+](C)(C)CCCCCNc1ccc([N+](=O)[O-])c2nonc12,"emrE (Escherichia coli, UniProt P23895)","substrate, proteoliposome transport",,"500 µM internal, pH 7.5",,transport half-time,~12 s
O=C1NC(=O)c2c1c1cc(F)c[n+]3c1c1c2c2cc(O)ccc2[n]1[Ru-4]312([N]=C=S)[S+]3CC[S+]1CC[S+]2CC3 (stereo not shown),"STK17A (Homo sapiens, UniProt Q9UEE5)",enzyme activity,,"100 nM, human enzyme, added: 10 µM ATP",baseline: untreated,remaining activity,59%
CN(C)CCCSC(=S)N1CCN(C(=O)/C=C/c2coc3ccccc3c2=O)CC1,"Nucleoprotein (N, Tomato spotted wilt virus, UniProt P25999, R94A)","binding, microscale thermophoresis",,62.5 µM,dose series,MST response,844 a.u.
O=C1NC2(CC2)COc2ncc(F)cc2[C@H]2COCCN2c2ccn3ncc1c3n2,,,"Sprague-Dawley rat, female, adrenals","oral, 20 mg/kg/day, 4 weeks, end of treatment",,organ-to-brain weight ratio,4.02 ± 0.41%
CC(C)(C)C(=O)OCOP(=O)(OCOC(=O)C(C)(C)C)C1CCCN(O)C1=O (stereo not shown),Hs-578T,,,,,CC50,> 100 µM
CC(C)[C@H]1NC(=O)C[C@H]2/C=C/CCSSC[C@@H](NC1=O)C(=O)N[C@H](Cc1cccc3ccccc13)C(=O)NCC(=O)O2,"TNIK (Homo sapiens, UniProt Q9UKE5)","enzyme activity, inhibitor",,10 µM,,inhibition,-3.7%
C[C@H](NCc1ccc(-c2ccc(C(F)(F)F)cc2)cc1)C(N)=O,"NMDA receptor agonist site, rat","binding, radioligand binding",biochemical,"1 µM, added: [3H]CGP-39653 2.0 nM",,inhibition,2%
COc1c(N2CC3CCCNC3C2)c(F)cc2c(=O)c(C(=O)OCc3ccc([N+](=O)[O-])o3)cn(C3CC3)c12 (stereo not shown),"nfsB (Escherichia coli K-12, UniProt P38489)",substrate,,added: NADH 100 µM,,initial rate,0.54 ± 0.056 µM/min
N[C@H](Cc1ccccc1)P(=O)(O)O,"PAL1 (Petroselinum crispum, UniProt P24481)","L-Phe deamination, inhibitor, UV steady-state kinetics",,"1000 µM, added: L-Phe 5 mM",,reaction rate reduction,55%
CCCC[C@H]1CNCCN1C[C@@H]1CCCN1C[C@H](CC1CCCCC1)N1CCN(CCC23CC4CC(CC(C4)C2)C3)[C@H]([C@H](C)CC)C1,"Oprd1 (Rattus norvegicus, UniProt P33533)",radioligand binding,rat brain membranes,"500 nM, pH 7.5, 25 °C, added: 2 nM [3H]DPDPE",,remaining binding,91.4%
COCC1CCCCN1C(=O)n1cc(C(O)(c2ccccc2)c2ccccc2)nn1 (stereo not shown),"S-formylglutathione hydrolase (Esd, Mus musculus, UniProt Q9R0P3)","enzyme activity, inhibitor, competitive ABPP-SILAC, measured: Esd",mouse T-cells,"concentration not given, 4 h, treated in situ",baseline: DMSO,activity ratio,1.29
N[C@H](C(=O)N1CCCC1)C1CCN(c2nccc3c(-c4ncc(Cl)cc4Cl)cccc23)CC1,"CRHR1 (Homo sapiens, UniProt P34998)","functional response, agonist",,10 µM,,response,5%

# For quick reference, copied from above:
Structure (SMILES),target or system,test,test system,setting,scale,quantity,value
N[C@H](C(=O)N1CCCC1)C1CCN(c2nccc3c(-c4ncc(Cl)cc4Cl)cccc23)CC1,"CRHR1 (Homo sapiens, UniProt P34998)","functional response, agonist",,10 µM,,response,5%
CCOC(=O)[C@@H]1Cc2c(cc([N+](=O)[O-])cc2[N+](=O)[O-])[C@H](O)[C@]12C(=O)Nc1ccc(Br)cc12,"STK11 (Homo sapiens, UniProt Q15831)","binding, competition with immobilised ligand",,0.1 µM,,remaining binding,54%
